Measured values gathered from unrelated publications.
Numbered parts are unrelated; each lists some results of a single study.

Series 1
Target: Centromere-binding protein 1, full length, N-terminal tag (CBF1, Saccharomyces cerevisiae, UniProt P17106, residues 1-351)
UniProt P17106, sequence (whole entry, looked up): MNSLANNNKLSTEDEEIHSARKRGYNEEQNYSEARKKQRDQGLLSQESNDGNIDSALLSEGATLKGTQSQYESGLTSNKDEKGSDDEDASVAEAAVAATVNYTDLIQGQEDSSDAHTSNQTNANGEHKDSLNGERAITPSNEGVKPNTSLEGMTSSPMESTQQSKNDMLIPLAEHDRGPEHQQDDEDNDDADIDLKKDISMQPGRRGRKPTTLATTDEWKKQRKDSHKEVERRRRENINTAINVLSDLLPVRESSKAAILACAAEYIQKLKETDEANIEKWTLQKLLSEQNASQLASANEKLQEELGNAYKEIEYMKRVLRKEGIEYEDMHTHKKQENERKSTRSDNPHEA
Technique: protein-binding microarray
Molecule type: double-stranded DNA, one strand shown
Medium: in vitro
Tested at: 0.8 µM
Setting: whole 60-bp probe, no competitor
Reading: higher = stronger binding
All sequences stand within: … GTCTTGATTCGCTTGACGCTGCTG
| Strand | fluorescence intensity |
| --- | --- |
| GAATTTTTTTCTCATGATGTCATATCCTTTTTATAG | 599 a.u. |
| CTATACTGCTGCTGTTGTGTGACTTGAAACGCGTTC | 607 a.u. |
| GAATGCTTAATAATTAGCGTGATTTCAATGGAATAG | 639 a.u. |
| CCTAACTACTATAGTCAGACCACATAGCTTCGTACA | 571 a.u. |
| TGTACGAAGCTATCTCTGATGTATATAGTAGTTAGG | 529 a.u. |
| CTAAAAAAAAAAAATAAGTCACGTGCACTCAGTTTC | 30800 a.u. |
| CTACCGCTCATTAGTCACGTGGTCATCACGTGATTC | 37600 a.u. |
| TGTACGAAGCTATCCCACGTACGTATAGTAGTTAGG | 517 a.u. |
| CTAATCTTGACTAACAACGTGTACAACTCTTTTTTC | 590 a.u. |
| GAATGTATATAACCGGGCATCACGAAGAGATCATAG | 512 a.u. |
| TGTACGAAGCTATAGAACGTGGTTATAGTAGTTAGG | 566 a.u. |
| CTAACTGTCTCAAAGCACATGAAGAAGGAAAAATTC | 612 a.u. |
| CTAAACCATCATTTTTTCGTGACGTTTCATAGTTTC | 511 a.u. |
| GAAGTAAGATAACTACATCTGATGTCATAGATTTAG | 514 a.u. |
| CTAAGACTTGAGTGCCATCAGCAAAGAAAAATATTC | 524 a.u. |
| GAAGCTTAAAAGCCCCTGACGGCTCACCTTAAATAG | 476 a.u. |
| GAATGAGGCTTTGCTGGTGACAATTCAGAAAATTAG | 558 a.u. |
| CTATTTTGTGACGGTGACGTACGATCTCTATACTTC | 530 a.u. |
| CTACGGGTGATGCGTGACGCGTTTTTGGAAACGTTC | 1110 a.u. |
| GAAAATGTCCCGGAAAACGTGGGTGTGCGGTGATAG | 563 a.u. |
| CTAGATTTCCTATTGTGCGTGCCTTATTTACGCTTC | 557 a.u. |
| GAACACCACTCAGGGCACGAGAAAAGCTTATTTTAG | 547 a.u. |
| CTACGTTGCCCTAGTCACGCTGGTTACATAAATTTC | 823 a.u. |
| GAAACCATAGCAACTCATGTCACTATCAATTACTAG | 535 a.u. |
| CTAGGTGTTTTTAATCAGCTGTAATAGAAGTACTTC | 560 a.u. |

Series 2
Target: RNA binding protein fox-1 homolog 2, RRM domain, GST-SBP tag (RBFOX2, Homo sapiens, UniProt O43251-10, residues 100-194)
Technique: RNA Bind-n-Seq
Molecule type: RNA
Medium: in vitro
Tested at: 365 nM
Setting: natural RNA segment, single round, ends assumed
Reference: no-protein control
Reading: higher = stronger binding
All sequences stand within: GGGAGUUCUACAGUCCGACGAUC … UGGAAUUCUCGGGUGCCAA
Construct (chain): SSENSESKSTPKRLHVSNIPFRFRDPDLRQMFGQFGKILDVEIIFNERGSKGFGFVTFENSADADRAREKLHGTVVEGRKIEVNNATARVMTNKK
| Strand | RBNS enrichment (R) |
| --- | --- |
| UCCAUCGCAAUGACCUGUAUUAAACACAAGCCCCCCAAGCAAAAGAAGAGGUUGAGUUUGCUGCCAGGAUUCAGAUCAGCCCUUCCCAGGGUCUGCAGGUGUCACAUGAU | 0.495 |
| CACAUCAUGAUUCCCGACGUGAGUUAGAUGAGGGAGAGUUUGUGUAACUCCACACCCAGGAGGGUAAGCCACUUUAUUAUCAUGCUUUGGGGCUGUGCUUAAGAAUUUAA | 0.415 |
| UGGAGACCUCCUCUGGCCAGGGGGCCACUGGUGUCCUCACUGUGUUGGGAUUCUGUUAUCCCUGAUACCCCAGGAGCCUAUUGACCUGACUGAGAAUAGUGACAUGUCUG | 0.485 |
| ACUCUGAGGAUUAUGUGAACAGGACAUUUUUCAUUUGUGAAUUUAAUGCUAUACUGUCAAGGUACUUGCUUGUGUCUGAACUCUAGUGCACUUAUGAUUUUGUAGACCAU | 0.451 |
| CUCGGCUGGUAGUGGCCCAGAUCUAUGCAGGCCCAUUAGCACACAUUCAAACCUUCCGGGGCUGUGACCUUCAAAGCUGUGUAAAUCAGUGUCAAGCACAUUAUAGUGUU | 0.462 |
| GGCAGCAGGACCCCAGGCUACAUAUGGAAGGUAGAGAUGUGGGGGUCCUGUAUCCUGGAGUAUUAUGUCUCCCCACCUUCUGCAGUUUUCUCUGAACAUGUAUGUUGCCC | 0.892 |
| GAUUUCCAGAAGUAAGUAGUUUCCCCUUUCCUAGUCUUCUGUGUAUGUGAUGUUGUUAAUUUCUUUUAUUGCAUUAUAAAAUAAAAGGAUUAUGUAUUUUUAACUAAGGU | 2.68 |
| UAACAUUUAGAUAACAUAUGAAGUAUGGCCCCCUUGGAUCCUUGUUUUUAAGUUACUUUCGAUGUGUAUACGAACAAAGACCAGGGAGAAACAGAACUUUUAAAACUAUA | 0.399 |
| UUUGACCCCAGAUGUCCAGAUGUUUUGCAGUGUCUGGGGCUUGUGUCCCUUGUUCUUCGUUCUGCUGCUUUGCCCCUUCCUUCCCUCUUCAUGGAGUGAUUAUGUUGAUA | 1.15 |
| CGAGGCUUCUCCCUUCUGCAAGGGGGUGGUCCCCUAUACCCGAGGAAUCUUUCUCUAGGGCACCUGGGCUCACAGCCUCCCUGGGCUCGGUUGUUCCUGCUGCCAAGUGC | 0.237 |
| CACUGAACAUUCAUCAGGGAACUUUCCUCAAGUCUAACUGCUGUGUUUGUGAGAAGAGCAGAAUCACGGAGACGCAAUCCUGACCACUGACUACAAGAGGAGCAACCCAG | 0.619 |
| CUUGUGGAGGAGUGGGUGGGGAGGACCACGGUUUGAGGAUCGCUCCUUGCAGAGCUCAUGGUGACCAUUGGUUAAAGCCCAGAAGUUCUGUGUAAGCAUUGAACACUGUC | 2.19 |

Series 3
Target: Histone acetyltransferase KAT6A, winged helix 2, GST fusion (KAT6A, Homo sapiens, UniProt Q92794, residues 85-181)
Technique: protein binding microarray
Molecule type: double-stranded DNA, one strand shown
Medium: in vitro
Tested at: not given
Setting: 8-mer, flanks averaged, mean of 2 arrays, mostly near background
Reference: not given
Reading: higher = stronger binding
Construct (chain): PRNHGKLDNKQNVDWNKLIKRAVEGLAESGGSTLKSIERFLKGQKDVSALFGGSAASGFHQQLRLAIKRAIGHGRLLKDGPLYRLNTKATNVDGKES
| Strand | E-score |
| --- | --- |
| ACACTGAT | -0.088 |
| GAGAGCTC | -0.0666 |
| ACCTAAAC | 0.0636 |
| CAATAGAA | -0.215 |
| AGATGCGC | 0.138 |
| GAAATATC | 0.0351 |
| CAGCTTGG | 0.147 |
| GCATAGCA | 0.154 |
| CTCCAAGA | 0.065 |
| GAGACATA | 0.00024 |
| GATCGCGA | 0.134 |
| CCGTACGC | 0.0141 |
| CTTCGCGA | 0.183 |
| GAAATGAC | -0.00234 |
| CGAGGCAC | 0.105 |
| CGCTAGAA | -0.0143 |
| GAAGAAAA | 0.0887 |
| GTAGCGAA | -0.0465 |
| AAGGGTAG | -0.222 |
| GACCCGTC | -0.0346 |
| ACTGAAAT | 0.00411 |
| GTCCCCGA | 0.0557 |
| CCATTTGC | -0.0765 |

Series 4
Target: RING finger protein unkempt homolog, zinc fingers 1-6, GST-SBP tag (UNK, Homo sapiens, UniProt Q9C0B0, residues 30-357)
Technique: RNA Bind-n-Seq
Molecule type: RNA
Medium: in vitro
Tested at: not given
Setting: RNA with constant flanks, human and mouse sites, ends assumed
Reference: input RNA pool
Reading: higher = stronger binding
All sequences stand within: GGGAGUUCUACAGUCCGACGAUC … CAACAGAGGAUUGAGCAUCA
Target sequence (chain): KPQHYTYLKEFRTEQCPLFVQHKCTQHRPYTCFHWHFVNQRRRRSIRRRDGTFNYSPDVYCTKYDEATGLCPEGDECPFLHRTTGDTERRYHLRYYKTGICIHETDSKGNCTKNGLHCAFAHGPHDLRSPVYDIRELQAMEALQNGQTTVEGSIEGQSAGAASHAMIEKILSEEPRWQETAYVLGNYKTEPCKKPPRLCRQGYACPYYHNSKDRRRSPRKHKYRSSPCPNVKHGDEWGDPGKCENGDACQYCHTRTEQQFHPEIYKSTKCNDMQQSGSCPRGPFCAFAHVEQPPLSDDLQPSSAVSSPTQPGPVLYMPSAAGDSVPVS
| Strand | bound/input enrichment [ratio] |
| --- | --- |
| CGUACAUUGGUAGGCAUGAAGUUGUUGGACAAGAUUCCCUCUGUCCCCCACGGGGAGCUGUCUUGCACCACAGAGCUCCUGAUCCUGGCCCACCACUGCUUUACCUUCACGUGCCACAUG | 0.236 |
| UGAAUACACAGUACAUCAUACAUCCUUUACAAGCAAGUUCAAUGGAGAUUACGUUGAAAUCAUAGAAGAUGCAAAUGACCUUUCAAAGUCAACACAAUGUGUUCUGAAACCUCGUGACUA | 0.262 |
| AGAUCCUUCACGUGCCCCUCCUGCAUGGAGCCAGUGGAUGCAGCACUGCUUUCAUCCUAUGAGACUAAUUGAGCCAGGGUCUCUCGUCUGACUUCAAGUGAACCAUCAGUUUUGGUGGUU | 0.096 |
| CUGUCUCCCUCUGGAGAGUGGAGACUGGAUCCGGCUGCGUCUUCCCUGUGUUCCCUGUUUCUUUAGGUACGAACCCUUUGUCUUUCCUGUGCCUUCUCAGCCCUGGAGAGGCAGAAAUCC | 0.129 |
| CAGAAUACCCAGGGUCUCAUUUUUGUGGUAGAUAGCAAUGAUCGUGAAAGAAUCCAGGAAGGAGCAGCUGUGCUGCAGAAAAUGCUUCUGGAAGAUGAGCUGCAGGAUGCAGUGCUGCUC | 0.375 |
| UCGGAAAUGCCGCUUUUGACUUCAACUAAUGAAUUUUAUACUAAAGGGAUGACACCAGUUCAAGACAAGGAGGAAGGAAAGAAUUCAUCUAAGUGUUACAUACAGGUCACUGGCAUGACU | 0.295 |
| CCAGGGACGUUCUCCCGGAGGGAAUCGUGGGACAGCCAGGGCGUCCCACUCGGAAGAGCUCGCCGGUCUUCACACGUAGUAGCCUUCUCAGGUCUGCAGGGACCACCAGCUGUCAGCCUC | 0.0678 |
| UGCGUUUUGUGUAGAGAAUAAGGAACGUGGAUCUUUUUAUUUUGCAAUCCUGGGCCAGCUAGAUACCGGGAGCUAAUUGACCUUUUAACCUUUUCAGUGGCCACCUUUUGGUUAUCAAUG | 0.331 |
| UUAAGCCCAAGCCCCUUGGACACUGCAGCUCUUUUCAGUUUUUGCUUAUACACAAUUCAUUCUUUGCAGCUAAUUAAGCCGAAGAAGCCUGGGAAUCAAGUUUGAAACAAAGAUUAAUAA | 0.152 |
| CUUGCAGUGAGGAAAAGAACCAUUAUCGCUCUUGGCCAUCUGGUUAUGAGCUGUGGAAAUAUAGUUUUUGUAGAUCUUAUUGAACAUCUGUUGUCAGAGUUGUCCAAAAAUGAUUCUAUG | 0.995 |
| UAGAUGUUCUGUCUCUAUGACAAUAUAUUUUAACUGACUUUCUAGAUGCCUUAAUAUUUGCAUGAUAAGCUAGUUUUCUUGGUUAGUAUUCUUGUUGUUUACGCAUGGAGUCACUAUUCC | 0.554 |

For quick reference, copied from above (series 1):
| Strand | fluorescence intensity |
| --- | --- |
| GAATTTTTTTCTCATGATGTCATATCCTTTTTATAG | 599 a.u. |
| CTATACTGCTGCTGTTGTGTGACTTGAAACGCGTTC | 607 a.u. |
| GAATGCTTAATAATTAGCGTGATTTCAATGGAATAG | 639 a.u. |
| CCTAACTACTATAGTCAGACCACATAGCTTCGTACA | 571 a.u. |
| TGTACGAAGCTATCTCTGATGTATATAGTAGTTAGG | 529 a.u. |
